Measurements from different studies.
Parts stem from different laboratories: compare values within a part only.

Series 1 — method: aptamer microarray, sandwich; molecule type: DNA with 2'F-ANA; sample: in vitro; concentration: 200 nM; added: Cy3 exosite-II aptamer, 400 nM; direction: higher = stronger binding; strand: GGTTGGTGTGGTTGG
Target: Prothrombin, mature alpha-thrombin (F2, Homo sapiens, UniProt P00734)
Setting: whole 15-mer aptamer, many near background
For `2'F-ANA at 1 2 3 4 5 7 8 10`, “mean fluorescence intensity” read 48.3 a.u.
`2'F-ANA at 2 4 7 8 10`: “mean fluorescence intensity” 128 a.u.
`2'F-ANA at 7 11 14` — result for “mean fluorescence intensity”: 223 a.u.
`2'F-ANA at 2 4 6 8 9 10 11 12 15`: “mean fluorescence intensity” 132 a.u.
For `2'F-ANA at 1 2 4 5 6 7 8 9 11 12 13 15`, “mean fluorescence intensity” read 62.5 a.u.
`2'F-ANA at 1 2 3 4` — result for “mean fluorescence intensity”: 214 a.u.
Under “mean fluorescence intensity”, `2'F-ANA at 1 2 4 13 14 15` is recorded as 51 a.u.
`2'F-ANA at 1 2 3 6 7 8 10 11 12 14` — result for “mean fluorescence intensity”: 55.4 a.u.
Under “mean fluorescence intensity”, `2'F-ANA at 1 2 3 5 7 11 12 13 14` is recorded as 220 a.u.

Series 2 — method: protein binding microarray; molecule type: double-stranded DNA, one strand shown; sample: in vitro; concentration: not given; relative to: not given; direction: higher = stronger binding
Target: Histone acetyltransferase KAT6A, winged helix 2, GST fusion (KAT6A, Homo sapiens, UniProt Q92794, residues 85-181)
Setting: 8-mer, flanks averaged, mean of 2 arrays, mostly near background
Residues (chain): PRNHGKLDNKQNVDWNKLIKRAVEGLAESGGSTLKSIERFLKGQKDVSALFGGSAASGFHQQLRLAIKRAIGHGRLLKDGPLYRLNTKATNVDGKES
With `ACCTGATA` the E-score was -0.0641.
With `CATCGGAC` the E-score was 0.124.
`AACCGCAA` has an E-score of 0.175.
`AGGACGAG` has an E-score of -0.0624.
For `GACTATAC`, the E-score was 0.0328.
For `GCGATGCA`, the E-score was 0.000975.
`ACAGCGGA` gave an E-score of 0.0518.
`ATGCTTTC` gave an E-score of 0.138.
`AATCACTA` gave an E-score of -0.135.
The E-score of `ATTTAAGC` is reported as 0.0611.
`GCGGACCC` gave an E-score of 0.162.

Series 3 — method: protein-binding microarray; molecule type: double-stranded DNA, one strand shown; sample: in vitro; concentration: 940 nM top; setting: 60-bp whole probe; added: salmon DNA 0.4 mg/ml; relative to: random background probes; direction: higher = stronger binding; all sequences stand within: GCCTAGCAC … GTCTTGATTCGCTTGACGCTGCTG
Target: Interferon regulatory factor 5, full length, phosphomimetic (IRF5, Homo sapiens, UniProt Q13568-2, residues 1-514, S451D/S453D/S456D/S462D)
For `TTTTCTCTGGTTCTTGCTTGGTGCTAG`, “fitted relative affinity” read 2.34 z-score.
`GACGATCTTAGTCTCGAGACGTGCTAG`: “fitted relative affinity” 1.16 z-score.
`TTAGGACTGGGTTTCGGTCAGTGCTAG` — result for “fitted relative affinity”: 6.44 z-score.
Under “fitted relative affinity”, `TCTGTAATTCTTAGAACAGCGTGCTAG` is recorded as -0.261 z-score.
For `GACGTACTGGGGACTGGGGACGTGCTA`, “fitted relative affinity” read 0.238 z-score.
`TTAGGTCTCGGTATGGGTTAGTGCTAG`: “fitted relative affinity” 4.86 z-score.
Under “fitted relative affinity”, `TCAGGTCTCGGTTTCGGTTAGTGCTAG` is recorded as 10.6 z-score.
Under “fitted relative affinity”, `TCAAATTTAGAAAATGGAACTGTGCTA` is recorded as -0.422 z-score.
Under “fitted relative affinity”, `GACGATATCCGGTATCGAGACGTGCTA` is recorded as 1.68 z-score.
`TTAGGTATCGCACTGGGTTAGTGCTAG` — result for “fitted relative affinity”: 2.17 z-score.
`TTAGGTATCGACTTTCGGTTCGTGCTA`: “fitted relative affinity” 5.77 z-score.
Under “fitted relative affinity”, `ACAGCAAGAGCTCAACGGGGGTGCTAG` is recorded as 0.106 z-score.

Single results of other studies
`PhoQ, residues 284 288 289 292 302 303 AGGCYF` gave a fold induction of 1.42 (PhoP, residues 12 14 15 18 19 NYFTV (Escherichia coli, UniProt P23836); Sort-seq, item: YFP reporter; E. coli; PhoQ-PhoP variant library, added: 10 µM Mg2+; relative to: high Mg2+ state, higher = stronger signaling).

For quick reference, copied from above (series 3):
Under “fitted relative affinity”, `TCAGGTCTCGGTTTCGGTTAGTGCTAG` is recorded as 10.6 z-score.
Under “fitted relative affinity”, `TCAAATTTAGAAAATGGAACTGTGCTA` is recorded as -0.422 z-score.
